Assay results of several laboratories.
Lines come from different studies, so protocols differ. ± marks the error that the study gave.

CC(=O)N([O-])CCCCCNC(=O)CCC(=O)N([O-])CCCCCNC(=O)CCC(=O)N([O-])CCCCCN.[89Zr+4] — intact complex (radio-iTLC; aqueous buffer; 3 h, pH 7.0, 37 °C, EDTA challenge, added: 100-fold excess EDTA): 95.5 ± 0.7%
CC[C@H](C)[C@@H]1NC(=O)[C@@](C)(NC(=O)[C@H](CCCNC(=N)N)NC(=O)[C@H](CC(C)C)NC(=O)[C@]2(C)CCCC=CCCC[C@](C)(NC(C)=O)C(=O)N[C@@H](CC(C)C)C(=O)N[C@@H](CCC(N)=O)C(=O)N2)CCCC=CCCC[C@@](C)(C(=O)N[C@@H](CC(C)C)C(=O)N[C@@H](Cc2ccc3ccccc3c2)C(=O)NCCC(=O)NCCC(N)=O)NC(=O)[C@H](CCCNC(=N)N)NC(=O)[C@H](CCC(N)=O)NC1=O — terminal half-life (BALB/c mice; intravenous, 30 mg/kg): 7.03 h
NS(=O)(=O)c1ccc(N2N=C(C(F)(F)F)CC2c2ccc(F)cc2F)cc1 (stereo not shown) — depletion rate (human liver microsomes; 20 µM, 0 to 30 min, pH 7.4): 233 pmol/min/mg
O=C(O)c1cc2cc(O)ccc2n1Cc1ccc(Cl)c(C(F)(F)F)c1 — serum ALT (male Wistar Hannover rat; oral, 200 mg/kg single dose): 83 U/L
CC(O)c1cc(Cl)ccc1Cn1c(=S)[nH]c(=O)c2[nH]ccc21 (stereo not shown) — exposure ratio (Sprague-Dawley rat, male, plasma; oral, 125 mg/kg/day; relative to: rat over human 10 mg): 5.3
CCCCCCc1ccc(Oc2ccccc2C#N)c(O)c1 — unbound fraction in plasma (rapid equilibrium dialysis; mouse plasma; 4 h, 37 °C): 0.01
CCCC[C@H](NC(=O)CNC(=O)CNC(=O)CN1CCN(CC(=O)O)CCN(CC(=O)O)CC1)C(=O)N[C@H]1CC(=O)NCCCC[C@@H](C(N)=O)NC(=O)[C@H](Cc2c[nH]c3ccccc23)NC(=O)[C@H](CCCNC(=N)N)NC(=O)[C@@H](Cc2ccccc2)NC(=O)[C@H](Cc2c[nH]cn2)NC1=O [gallium-67 labelled] — tumour to tissue ratio (female C57 mice, B16/F1 melanoma; intravenous, 0.037 MBq, 0.5 h; relative to: tumour over muscle): 28.2
Cc1ccc(OCC(=O)N(Cc2cccs2)c2ccn[nH]2)cc1 — bioavailability (male Sprague-Dawley rat, plasma; oral, 10 mg/kg, single dose): 0.07%
COC(=O)c1ccc(-c2cn(Cc3cc(Cl)ccc3O[11CH3])nn2)cc1 — radioactivity (C57BL/6 mouse, brain; iv, dose not given, 2 min): 2.58 %ID/cc
COc1ccc(OC)c(C(=Cc2ccc(O)c(OC)c2)C(=O)NCCc2ccc(O)cc2)c1 — Tmax, second peak (KM mice, plasma; oral, 50 mg/kg): 3 h
CCOc1ccc2c(c1)C(C)=CC(C)(C)N2c1cc(OCC)cc2c1NC(C)(C)C=C2C — tissue residue (LC-MS/MS; laying hens, liver; oral in feed, 50 mg/kg feed ethoxyquin, 56 days, after glucuronidase treatment): 3 ± 1.6 ng/g
Cn1c(=O)oc2ccc(-c3ccc(CC(C#N)NC(=O)C4CNCCCO4)c(F)c3)cc21 (stereo not shown) — subjects with TEAE (measured: urinary occult blood positive; human; 40 mg single dose, fasted): 0%
C[C@]12C[C@H](c3ccc(C4CC4)cc3)C3=C4CCC(=O)C=C4CC[C@H]3[C@@H]1CC[C@@]2(O)C(F)(F)C(F)(F)F — maximal oral bioavailability (human liver microsomes; 100 % absorption assumed): 66%
CC(=O)N[C@H](CSSC[C@H](N)C(=O)O)C(=O)N[C@H](C)C(=O)N[C@H](CCCNC(=N)N)C(=O)N[C@H](CCCNC(=N)N)C(=O)N[C@H](CCCNC(=N)N)C(=O)N[C@H](C)C(=O)N[C@H](CCCNC(=N)N)C(N)=O — Cmax (male human, plasma; intravenous, 10 mg, single dose, healthy volunteers): 567 ng/mL
[2H]C([2H])([2H])NC(=O)c1ccc(N2C(=S)N(c3ccc(C#N)c(C(F)(F)F)c3)C(=O)C2(C)C)cc1F — AUC (male human, plasma; oral, 40 mg, single dose, fasted): 151000 ng·h/mL
CC(C)c1cnc(-c2cc(Cl)ccc2F)cc1Nc1ccncc1C(=O)NC(CO)CO — patients with treatment-related adverse event (monotherapy, measured: myalgia; human patients; oral, dose not given, grade 3, phase I A): 0%
CC12CC(c3ccc(S(C)(=O)=O)cc3)C3=C4CCC(=O)C=C4CCC3C1CCC2(O)C(F)(F)C(F)(F)F (stereo not shown) — AUC (human, plasma; oral, 4 mg, single dose, fasted): 325 ng·h/mL
CN1CCC[C@]1(C)/C=C/S(=O)(=O)NC(=O)Nc1c2c(cc3c1CCC3)CCC2 — Cmax (human, plasma; oral, 100 mg, single dose, healthy volunteers): 11500 ng/mL
CCCCCCCCCCCCCCCC(=O)N[C@@H](CCCCN)C(=O)N[C@@H](CCCCN)C(=O)N[C@@H](CO)C(=O)N[C@@H](CCCNC(=N)N)C(=O)N[C@@H](C)C(=O)N[C@@H](CC(C)C)C(=O)N[C@@H](Cc1ccccc1)C(N)=O — activated clotting time (human, whole blood of PCI patients; up to 150 µM): no effect
CCCC[C@H](NC(C)=O)C(=O)N[C@H]1CC(=O)NCCCC[C@@H](C(=O)N[C@@H](C(=O)N2CCC[C@@H]2C(N)=O)C(C)C)NC(=O)[C@H](Cc2c[nH]c3ccccc23)NC(=O)[C@H](CCCN=C(N)N)NC(=O)[C@@H](Cc2ccc3ccccc3c2)NC(=O)[C@@H]2CCCN2C1=O — half-life (Beagle dog, both sexes, plasma; subcutaneous, once daily, 2.25 mg/kg, day 1): 2.6 ± 0.2 h
COc1cc2c(cc1OC)CN(CCCCn1ccc3cc(OCC[18F])ccc31)C2 — uptake (ICR mice, male, small intestine; intravenous, 2 min): 7.47 ± 0.93 %ID/organ
OCc1cn(Cc2ccc(-c3noc(-c4ccc(OCC[18F])c(C(F)(F)F)c4)n3)cc2)nn1 — tracer uptake (rat, blood; intravenous, 1 h): 0.36 %ID/g
CCCC[C@@H]1NC(=O)[C@@H](NC(=O)[C@H](CCC(=O)O)NC(=O)CNC(=O)CN2CCN(CC(=O)O)CCN(CC(=O)O)CCN(CC(=O)O)CC2)CCCCNC(=O)C[C@@H](C(N)=O)NC(=O)[C@H](C(C)C)NC(=O)[C@@H]2CCCN2C(=O)[C@H](CCCNC(=N)N)NC(=O)CNC(=O)[C@H](Cc2c[nH]c3ccccc23)NC(=O)[C@H](CCCNC(=N)N)NC(=O)[C@@H](Cc2ccccc2)NC(=O)[C@H](Cc2c[nH]cn2)NC(=O)[C@H](CCC(=O)O)NC1=O [gallium-67 labelled] — tumour to blood ratio (C57 mice with B16/F1 melanoma; intravenous, 0.037 MBq/mouse, 4 h; relative to: tumour over blood): 47.8
c1ccc(CN2CCOCCOCCN(CCCCCCCCCCCCCCN3CCOCCOCCN(CCCCCCCCCCCCCCN4CCOCCOCCN(Cc5ccccc5)CCOCCOCC4)CCOCCOCC3)CCOCCOCC2)cc1 — aggregate size (scanning electron microscopy; Escherichia coli cell surface; concentration not given, 5 min): 164 ± 22 nm
O=C(CCc1ccc(CNC(C(=O)OC2CCCC2)C2CCCCC2)cn1)NO (stereo not shown) — Cmax (human, plasma; oral, 50 mg, single dose, patients): 256 ng/mL
CC(C)(F)CC(NC(c1ccc(-c2ccc(S(C)(=O)=O)cc2)cc1)C(F)(F)F)C(=O)NCC#N (stereo not shown) — cysteine adduct formation (LC-MS UV trace; aqueous buffer; concentration not given, 23 h, pH 5.5, 37 °C, added: cysteine 10 mM): 5%
Cc1ccc(-c2ccc(-c3cc4sccc4o3)cn2)nc1 — fluorescence quantum yield (benzene; added: quinine bisulfate reference): 0.59
NC[C@@H](C(=O)Nc1ccc(-c2cn[nH]c2)cc1)c1ccccc1 — cornea score (OECD 405 eye irritation; New Zealand White rabbit, eye; topical, 0.1%, 97 h (day 5), scale 0 to 4; direction not given): 0

A few entries again:
CCCCCCCCCCCCCCCC(=O)N[C@@H](CCCCN)C(=O)N[C@@H](CCCCN)C(=O)N[C@@H](CO)C(=O)N[C@@H](CCCNC(=N)N)C(=O)N[C@@H](C)C(=O)N[C@@H](CC(C)C)C(=O)N[C@@H](Cc1ccccc1)C(N)=O — activated clotting time (human, whole blood of PCI patients; up to 150 µM): no effect
CC(C)c1cnc(-c2cc(Cl)ccc2F)cc1Nc1ccncc1C(=O)NC(CO)CO — patients with treatment-related adverse event (monotherapy, measured: myalgia; human patients; oral, dose not given, grade 3, phase I A): 0%
CCCC[C@H](NC(C)=O)C(=O)N[C@H]1CC(=O)NCCCC[C@@H](C(=O)N[C@@H](C(=O)N2CCC[C@@H]2C(N)=O)C(C)C)NC(=O)[C@H](Cc2c[nH]c3ccccc23)NC(=O)[C@H](CCCN=C(N)N)NC(=O)[C@@H](Cc2ccc3ccccc3c2)NC(=O)[C@@H]2CCCN2C1=O — half-life (Beagle dog, both sexes, plasma; subcutaneous, once daily, 2.25 mg/kg, day 1): 2.6 ± 0.2 h
COC(=O)c1ccc(-c2cn(Cc3cc(Cl)ccc3O[11CH3])nn2)cc1 — radioactivity (C57BL/6 mouse, brain; iv, dose not given, 2 min): 2.58 %ID/cc
